Results gathered from unrelated publications.
Values after ≈ are worked out from the molar mass of the structure shown.
Organism: Staphylococcus epidermidis

| Structure (SMILES) | test | system | conditions | quantity | result |
| --- | --- | --- | --- | --- | --- |
| C[C@@H](O)[C@H](NC(=O)[C@H](Cc1c[nH]c2ccccc12)NC(=O)[C@H](Cc1c[nH]c2ccccc12)NC(=O)[C@H](Cc1c[nH]c2ccccc12)NC(=O)[C@@H](NC(=O)[C@H](Cc1c[nH]c2ccccc12)NC(=O)[C@H](CCCNC(=N)N)NC(=O)[C@@H](N)CCCNC(=N)N)[C@@H](C)O)C(=O)N[C@@H](Cc1c[nH]c2ccccc12)C(=O)N[C@@H](CCCNC(=N)N)C(=O)N[C@@H](CCCNC(=N)N)C(N)=O | broth microdilution | 12228, Mueller-Hinton broth | 24 h, 37 °C, lowest concentration, 95% inhibition, with: BSA | MIC | 2 µM |
| CC[C@H](C)[C@H](N)C(=O)N[C@@H](CCCNC(=N)N)C(=O)N[C@H](C(=O)N[C@@H](Cc1c[nH]c2ccccc12)C(=O)N[C@@H](Cc1ccccc1)C(=O)N[C@H](C(=O)N[C@@H](CCCCN)C(=O)N[C@H](C(=O)N[C@@H](CCCNC(=N)N)C(=O)N[C@@H](CCCCN)C(=O)N[C@@H](Cc1c[nH]c2ccccc12)C(=O)N[C@@H](CCCCN)C(=O)N[C@@H](C)C(=O)N[C@H](C(=O)N[C@@H](Cc1ccc(O)cc1)C(=O)N[C@@H](Cc1c[nH]cn1)C(=O)N[C@H](C(N)=O)[C@@H](C)O)[C@@H](C)CC)C(C)C)[C@@H](C)CC)C(C)C | broth dilution | KCTC 1917 | – | MIC | 50 µM |
| CC[C@H](C)[C@H](NC(=O)[C@H](Cc1c[nH]c2ccccc12)NC(=O)[C@@H](NC(=O)[C@@H](NC(=O)[C@@H](NC(=O)[C@H](CCCNC(=N)N)NC(=O)[C@@H](N)CCCNC(=N)N)[C@@H](C)CC)[C@@H](C)O)[C@@H](C)CC)C(=O)N[C@H](C(=O)N[C@H](C(=O)N[C@@H](CCCNC(=N)N)C(=O)N[C@@H](CCCNC(=N)N)C(N)=O)[C@@H](C)CC)[C@@H](C)O | broth microdilution | 12228, Mueller-Hinton broth | 24 h, 37 °C, lowest concentration, 95% inhibition, with: BSA | MIC | 128 µM |
| CN[C@H](CC(C)C)C(=O)N[C@H]1C(=O)N[C@@H](CC(N)=O)C(=O)N[C@H]2C(=O)N[C@H]3C(=O)N[C@H](C(=O)N[C@H](C(=O)O)c4cc(O)cc(O)c4-c4cc3ccc4O)[C@H](O)c3ccc(c(Cl)c3)Oc3cc2cc(c3O[C@@H]2O[C@H](CO)[C@@H](O)[C@H](O)[C@H]2O[C@H]2C[C@](C)(N)[C@H](O)[C@H](C)O2)Oc2ccc(cc2Cl)[C@H]1O | – | MRSE 35984 | – | MBC | 3 µM (≈ 4.35 µg/mL) |
| CC[C@@H](C)[C@@H](N)C(=O)N[C@@H](C(=O)N[C@H](Cc1ccc(O)cc1)C(=O)N[C@@H](C(=O)N[C@H](CCN)C(=O)N[C@H](CC(C)C)C(=O)N[C@H](CO)C(=O)N[C@H](CCN)C(=O)N[C@@H](C(=O)N[C@H](CCN)C(=O)N[C@H](Cc1c[nH]cn1)C(=O)N[C@H](CCN)C(=O)N[C@H](C)C(=O)N[C@H](CCN)C(=O)N[C@H](CCN)C(N)=O)[C@H](C)CC)[C@H](C)CC)[C@H](C)CC | – | ATCC 12228, Mueller-Hinton broth | – | MIC | 2 µg/mL |
| CN[C@H](CC(C)C)C(=O)N[C@H]1C(=O)N[C@@H](CC(N)=O)C(=O)N[C@H]2C(=O)N[C@H]3C(=O)N[C@H](C(=O)N[C@H](C(=O)O)c4cc(O)cc(O)c4-c4cc3ccc4O)[C@H](O)c3ccc(c(Cl)c3)Oc3cc2cc(c3O[C@@H]2O[C@H](CO)[C@@H](O)[C@H](O)[C@H]2O[C@H]2C[C@](C)(N)[C@H](O)[C@H](C)O2)Oc2ccc(cc2Cl)[C@H]1O | – | MRSE 35984 | 24 h | MBC | 3 µM (≈ 4.35 µg/mL) |
| CC[C@H](C)[C@H](N)C(=O)N[C@@H](CC(C)C)C(=O)N1CCC[C@H]1C(=O)N[C@@H](Cc1c[nH]c2ccccc12)C(=O)N[C@@H](CCCCN)C(=O)N[C@@H](Cc1c[nH]c2ccccc12)C(=O)N1CCC[C@H]1C(=O)N[C@@H](Cc1c[nH]c2ccccc12)C(=O)N[C@@H](Cc1c[nH]c2ccccc12)C(=O)N1CCC[C@H]1C(=O)N[C@@H](Cc1c[nH]c2ccccc12)C(=O)N[C@@H](CCCNC(=N)N)C(=O)N[C@@H](CCCNC(=N)N)C(N)=O | broth dilution | ATCC 51625 | 18 h, 37 °C | MIC | 10.5 µM |
| CC(C)C[C@H](NC(=O)[C@@H](NC(=O)[C@H](CCCNC(=N)N)NC(=O)[C@H](CCC(N)=O)NC(=O)[C@H](Cc1ccccc1)NC(=O)[C@H](Cc1ccc(O)cc1)NC(=O)[C@H](CC(N)=O)NC(=O)[C@H](Cc1c[nH]c2ccccc12)NC(=O)[C@@H](NC(=O)[C@H](CCCNC(=N)N)NC(=O)[C@H](CCCCN)NC(=O)[C@@H](N)Cc1ccccc1)C(C)C)C(C)C)C(=O)N[C@H](C(=O)N[C@@H](CCCCN)C(=O)N[C@@H](CCCCN)C(=O)N[C@@H](Cc1ccc(O)cc1)C(=O)N[C@@H](C)C(N)=O)C(C)C | broth dilution | KCTC 1917 | – | MIC | 50 µM |
| CC[C@H](C)[C@H](NC(=O)CN)C(=O)NCC(=O)N[C@@H](CCCCN)C(=O)N[C@@H](Cc1ccccc1)C(=O)N[C@@H](CC(C)C)C(=O)N[C@@H](Cc1c[nH]cn1)C(=O)N[C@@H](CO)C(=O)N[C@@H](C)C(=O)N[C@@H](CCCCN)C(=O)N[C@@H](CCCCN)C(=O)N[C@@H](Cc1ccccc1)C(=O)NCC(=O)N[C@@H](CCCCN)C(=O)N[C@@H](C)C(=O)N[C@@H](Cc1ccccc1)C(=O)N[C@H](C(=O)NCC(=O)N[C@@H](CCC(=O)O)C(=O)N[C@H](C(=O)N[C@@H](CCSC)C(=O)N[C@@H](CC(N)=O)C(=O)N[C@@H](CO)C(N)=O)[C@@H](C)CC)C(C)C | broth dilution | ATCC 51625 | 18 h, 37 °C | MIC | 64.9 µM |
| CC[C@H](C)[C@H](N)C(=O)N[C@@H](CCCNC(=N)N)C(=O)N[C@H](C(=O)N[C@@H](Cc1c[nH]c2ccccc12)C(=O)N[C@@H](Cc1c[nH]c2ccccc12)C(=O)N[C@@H](CCCCN)C(=O)N[C@H](C(=O)N[C@H](C(=O)N[C@@H](CCCNC(=N)N)C(=O)N[C@@H](CCCCN)C(=O)N[C@@H](Cc1c[nH]c2ccccc12)C(=O)N[C@@H](CCCCN)C(=O)N[C@@H](C)C(=O)N[C@H](C(=O)N[C@@H](Cc1c[nH]c2ccccc12)C(=O)N[C@@H](Cc1c[nH]cn1)C(N)=O)[C@@H](C)CC)C(C)C)[C@@H](C)CC)C(C)C | broth dilution | KCTC 1917 | – | MIC | 12.5 µM |
| CC[C@H](C)[C@H](NC(=O)[C@@H]1CCCN1C(=O)[C@@H]1CCCN1C(=O)[C@H](CCCNC(=N)N)NC(=O)[C@H](Cc1ccccc1)NC(=O)[C@@H](N)CCCNC(=N)N)C(=O)N[C@@H](CCCNC(=N)N)C(=O)N[C@@H](CCCNC(=N)N)C(=O)N1CCC[C@H]1C(=O)N1CCC[C@H]1C(=O)N[C@H](C(=O)N[C@@H](CCCNC(=N)N)C(=O)N1CCC[C@H]1C(=O)N1CCC[C@H]1C(=O)N[C@@H](Cc1ccccc1)C(=O)N[C@@H](Cc1ccc(O)cc1)C(=O)N1CCC[C@H]1C(=O)N1CCC[C@H]1C(=O)N[C@@H](Cc1ccccc1)C(=O)N[C@@H](CCCNC(=N)N)C(=O)N1CCC[C@H]1C(=O)N1CCC[C@H]1C(=O)N[C@H](C(=O)N[C@@H](CCCNC(=N)N)C(=O)N1CCC[C@H]1C(=O)N1CCC[C@H]1C(=O)N[C@H](C(=O)N[C@@H](Cc1ccccc1)C(=O)N1CCC[C@H]1C(=O)N1CCC[C@H]1C(=O)N[C@H](C(=O)N[C@@H](CCCNC(=N)N)C(=O)N1CCC[C@H]1C(=O)N1CCC[C@H]1C(=O)N[C@@H](Cc1ccccc1)C(=O)N[C@@H](CCCNC(=N)N)C(=O)N1CCC[C@H]1C(=O)N1CCC[C@H]1C(=O)N[C@@H](CC(C)C)C(=O)NCC(=O)N1CCC[C@H]1C(=O)N[C@@H](Cc1ccccc1)C(=O)N1CCC[C@H]1C(=O)O)[C@@H](C)CC)[C@@H](C)CC)[C@@H](C)CC)[C@@H](C)CC | broth dilution | ATCC 51625 | 18 h, 37 °C | MIC | 124 µM |
| CC(C)C[C@H](NC(=O)[C@@H](NC(=O)[C@H](CCCNC(=N)N)NC(=O)[C@H](CCC(N)=O)NC(=O)[C@H](Cc1ccccc1)NC(=O)[C@H](Cc1ccc(O)cc1)NC(=O)[C@H](CC(N)=O)NC(=O)[C@H](Cc1c[nH]c2ccccc12)NC(=O)[C@@H](NC(=O)[C@H](CCCNC(=N)N)NC(=O)[C@H](CCCCN)NC(=O)[C@@H](N)Cc1ccccc1)C(C)C)C(C)C)C(=O)N[C@H](C(=O)N[C@@H](CCCCN)C(=O)N[C@@H](CCCCN)C(N)=O)C(C)C | broth dilution | KCTC 1917 | – | MIC | > 100 µM |
